# Measurements from different studies.
# Protocols differ between the studies behind these lines. ± marks the error that the study gave.
# UniProt Q8TF76, sequence (whole entry, looked up): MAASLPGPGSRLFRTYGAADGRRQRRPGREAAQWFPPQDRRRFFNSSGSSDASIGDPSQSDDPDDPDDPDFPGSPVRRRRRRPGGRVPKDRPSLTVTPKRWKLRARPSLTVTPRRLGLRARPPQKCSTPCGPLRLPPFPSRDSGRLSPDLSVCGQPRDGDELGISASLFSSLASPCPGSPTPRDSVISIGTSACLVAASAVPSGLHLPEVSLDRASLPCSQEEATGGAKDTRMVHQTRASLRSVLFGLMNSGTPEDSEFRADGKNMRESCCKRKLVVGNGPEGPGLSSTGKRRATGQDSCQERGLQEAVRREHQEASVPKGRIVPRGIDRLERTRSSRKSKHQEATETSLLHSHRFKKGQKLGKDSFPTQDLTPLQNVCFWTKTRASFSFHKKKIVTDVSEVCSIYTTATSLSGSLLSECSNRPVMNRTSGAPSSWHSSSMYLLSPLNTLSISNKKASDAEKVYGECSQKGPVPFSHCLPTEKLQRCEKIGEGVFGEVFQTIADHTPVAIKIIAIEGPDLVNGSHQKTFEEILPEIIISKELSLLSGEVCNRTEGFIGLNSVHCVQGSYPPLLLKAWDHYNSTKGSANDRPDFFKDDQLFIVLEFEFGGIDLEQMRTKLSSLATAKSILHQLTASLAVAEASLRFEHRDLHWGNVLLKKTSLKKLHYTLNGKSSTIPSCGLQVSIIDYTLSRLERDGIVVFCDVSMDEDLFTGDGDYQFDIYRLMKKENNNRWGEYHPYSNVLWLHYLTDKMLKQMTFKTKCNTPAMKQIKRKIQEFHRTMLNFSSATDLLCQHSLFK
Compound,target or system,test,system,setting,scale,endpoint,result
CC(C)[C@H]1NC(=O)[C@H](Cc2ccccc2)NC(=O)[C@@H](C(C)C)NC(=O)[C@@H](C)NC(=O)[C@H]([C@@H](C)O)NC(=O)[C@@H](Cc2c(-c3ccc(-c4ccc5ccccc5c4)cc3)[nH]c3ccccc23)NC(=O)[C@@H](CO)NC1=O,Mycobacterium marinum,,,,,MIC90,> 100 µM
CC(C)(C)C(=O)OCOP(=O)(OCOC(=O)C(C)(C)C)C1CCCN(O)C1=O (stereo not shown),SK-OV-3,,,,,log LC50,> -4 log M
CC1COC2=C1C(=O)C(=O)c1c2ccc2c1C(OC(=O)CNC(=O)C(N)CO)CCC2(C)C (mixture of isomers),Cutibacterium acnes,,,"10 µmol/mL, 48 h, anaerobic, 10 µL on 6 mm disc",,inhibition zone diameter,16.8 ± 0.8 mm
CC(C)C[C@H](NC(=O)[C@@H](N)CO)C(=O)N[C@@H](Cc1c[nH]c2ccccc12)C(=O)N[C@@H](CCC(=O)O)C(=O)N[C@@H](CC(N)=O)C(=O)N[C@@H](Cc1ccccc1)C(=O)N[C@@H](CCCCN)C(=O)N[C@@H](CC(N)=O)C(=O)N[C@@H](C)C(=O)NCC(=O)N[C@@H](CCCCN)C(N)=O,Gram-negative bacteria,,,,,geometric mean MIC,256 µM
CCOC(=O)C1(Cc2ccccc2)Oc2cc(F)ccc2N(Cc2ccccc2)C1=O (stereo not shown),Setaria viridis,,greenhouse,"postemergence, 150 g ai/ha, 21 days",,fresh weight inhibition,42.8 ± 2.11%
[O-][N+]1=C(c2ccccc2)C2=NCCCN2c2ncccc21,Clostridioides difficile,microbial growth,,,,MIC90,0.5 µg/mL
CN(C)c1nc(NCc2c(F)cccc2C(F)(F)F)c(/N=N/c2ccc(Cl)cc2)c(N(C)C)n1,Ostrinia furnacalis,leaf dipping,,"200 mg/L, 96 h",,mortality,85 ± 7.1%
O=S(=O)(c1ccc(-c2ccc3ncnc(Nc4ccc(OCc5cccc(Cl)c5)c(Cl)c4)c3c2)cc1)N1CCOCC1,Trypanosoma cruzi,"intracellular amastigote growth, β-galactosidase CPRG","3T3, Tulahuen, β-galactosidase-expressing","10 µM, 96 h",,inhibition,4%
CC(O)CN.O=C(O)C(Cl)Cl,Solanum nigrum,herbicidal activity,,"15 mg/mL, 21 days, post-emergence greenhouse",,inhibition,64%
CC[C@H](C)CCCCC(=O)N[C@@H](CCN)C(=O)N[C@H](C(=O)N[C@@H](CCN)C(=O)N[C@H]1CCNC(=O)[C@H]([C@@H](C)O)NC(=O)[C@H](CCN)NC(=O)[C@H](CCN)NC(=O)[C@H](CC(C)C)NC(=O)[C@@H](CC(C)C)NC(=O)[C@H](CCN)NC1=O)[C@@H](C)O,Escherichia coli,daily serial passaging,ATCC 8739,"highest sub-MIC, 20 days",relative to: initial MIC,MIC fold change,1.26
COc1ccccc1-c1n[nH]c2nc(N[C@H]3CC[C@H](NS(=O)(=O)CC(C)C)CC3)ncc12,,"bead binding, competition bead pull-down, measured: LINJ.33.2190",Leishmania donovani extract,10 µM,relative to: vehicle,relative abundance,0.71
O=C1NC2(CC2)COc2ncc(F)cc2[C@H]2COCCN2c2ccn3ncc1c3n2,,,"Sprague-Dawley rat, male, serum","oral, 10 mg/kg/day, end of recovery, 4-week subacute toxicity",,serum total protein,57.6 ± 1.7 g/L
COc1ccccc1-c1n[nH]c2nc(NC3CCN(C(=O)Cc4ccc(F)cc4F)CC3)ncc12,,"bead binding, competition bead pull-down, measured: LINJ.35.3130",Leishmania donovani extract,10 µM,relative to: vehicle,relative abundance,1.12
Cc1cc(C(=O)Nc2nc3cccc(C)c3n2[C@H]2CCCCN(C(=O)/C=C/CN(C)C)C2)ccn1,Trypanosoma brucei,,"STIB795, mouse acute HAT model","oral, 25 mg/kg once daily for 4 days, day 31",relative to: mice,survival,16.7%
CC[C@H](C)[C@@H]1NC(=O)[C@H](CO)NC(=O)CC(CCCCN)NC(=O)[C@@H]2CSSC[C@@H](C(=O)N[C@@H](Cc3ccc(O)cc3)C(N)=O)NC(=O)[C@H](CCCCN)NC(=O)[C@@H]3CSSC[C@H](NC(=O)[C@H](CCCNC(=N)N)NC(=O)CC(CC(C)C)NC(=O)[C@H](CC(=O)O)NC(=O)[C@H](CC(=O)O)NC(=O)[C@H](CCC(=O)O)NC(=O)[C@H](CC(N)=O)NC(=O)[C@H](Cc4c[nH]c5ccccc45)NC(=O)[C@@H]4CCCN4C(=O)CNC(=O)[C@H](CC(N)=O)NC(=O)[C@@H](NC(=O)CNC(=O)[C@H](Cc4ccccc4)NC(=O)CN)CSSC[C@H](NC(=O)[C@H](Cc4ccc(O)cc4)NC(=O)CNC(=O)CNC(=O)[C@H](CCCCN)NC(=O)[C@H](Cc4ccc(O)cc4)NC(=O)CNC(=O)[C@H](CCCCN)NC1=O)C(=O)N[C@@H](C)C(=O)N[C@@H](CCCCN)C(=O)NCC(=O)NCC(=O)N[C@@H](Cc1ccccc1)C(=O)N[C@@H](C(C)C)C(=O)N3)C(=O)N[C@@H](Cc1c[nH]cn1)C(=O)NC(CC(N)=O)CC(=O)N[C@@H](Cc1c[nH]cn1)C(=O)N2 (stereo partly shown),Streptococcus pneumoniae,,BS-441,"24 h, 37 °C, 99.9% killing",,MBC,4 µM
CS(C)(=O)=Nc1ccc(-c2ccc(-c3nc4cc(O[C@@H]5CO[C@H]6[C@@H]5OC[C@H]6O)[nH]c4cc3F)cc2)cc1,"HASPIN (Homo sapiens, UniProt Q8TF76)","enzyme activity, inhibitor",,10 µM,,inhibition,-12%
